Assay results from different studies.
Numbered parts are unrelated; each lists some results of a single study. Positions count from the first letter of the parent shown.

Block 1
Target: Prothrombin, mature alpha-thrombin (F2, Homo sapiens, UniProt P00734)
Technique: aptamer microarray, sandwich
Form: DNA with 2'F-ANA
Medium: in vitro
Concentration: 200 nM
Setting: whole 15-mer aptamer, many near background
Together with: Cy3 exosite-II aptamer, 400 nM
Direction: higher = stronger binding
Strand: GGTTGGTGTGGTTGG
Modification	mean fluorescence intensity [a.u.]
2'F-ANA at 1 4 5 10 12 14 15	45.4
2'F-ANA at 2 3 4 5 7 8 10 11 12 13 14 15	50.3
2'F-ANA at 1 2 3 4 5 6 8 9 10 12 13 14	55.6
2'F-ANA at 1 5 8 9 11 14 15	52.4
2'F-ANA at 4 6 9 10 12 13 14	69.4
2'F-ANA at 2 3 5 6 9 12 13 15	128
2'F-ANA at 1 4 5 8 10 12 13 15	45.1
2'F-ANA at 1 2 3 4 5 6 9 10 12 13 14	116
2'F-ANA at 1 3 4 5 7 14	46.7
2'F-ANA at 3 4 5 7 8 9 13 15	78.5
2'F-ANA at 1 2 4 5 7 10 11	62.2
2'F-ANA at 1 3 4 5 6 8 10 12 13 14 15	128
2'F-ANA at 1 3 4 6 7 8 11 12 15	342
2'F-ANA at 2 4 5 7 9 10 11 12 13 15	52.6
2'F-ANA at 1 5 6 8 10 11 13 15	49.1
2'F-ANA at 1 4 5 6 8 9 10 13 15	48.4
2'F-ANA at 1 2 3 4 6 7 8 9 11 13	141
2'F-ANA at 1 3 4 6 9 13 14 15	87.1
2'F-ANA at 1 2 7 8 11 15	181
2'F-ANA at 1 4 5 6 14	45.2
2'F-ANA at 5 6 9 10 11 12 13 15	53.7

Block 2
Target: Sal-like protein 4, full length isoform B (SALL4, Homo sapiens, UniProt Q9UJQ4-2, residues 1-616)
Technique: universal PBM
Form: double-stranded DNA, one strand shown
Medium: in vitro
Concentration: not given
Setting: 8-mer, flanks averaged, mean of replicates
Direction: higher = stronger binding
Strand	E-score
GGGGCGTA	-0.181
ACGCAAGG	-0.17
ACGCCGTA	0.0165
CGACATAG	-0.00678
CTCTCAGA	-0.0657
AGATCAAT	0.125
CAGCCCGG	-0.313
AAAGTCCC	0.0242
AGTAACCG	-0.0901
ACGAAGAC	-0.118
AGTTAGAT	0.156
AGAACCGC	-0.112
AGTCAAGG	-0.0635
ACTGCGAA	-0.0281
GACGAGTC	-0.121
ATCCCCGG	-0.338
CTTCACGA	-0.19
GACAAACA	-0.00912
AATCCAAC	0.0277
ATTTGTTC	0.267
CTGTGCGC	-0.366
CATACTGG	-0.0356

Block 3
Target: CCND1, cyclin fold, Cln2 fusion (human)
Technique: yeast growth competition, sequencing
Medium: yeast
Setting: weak parent motif
Baseline: not given
Direction: higher = stronger binding
Starting sequence: E2F3 docking peptide (human); PPAKRRLELGESG; partner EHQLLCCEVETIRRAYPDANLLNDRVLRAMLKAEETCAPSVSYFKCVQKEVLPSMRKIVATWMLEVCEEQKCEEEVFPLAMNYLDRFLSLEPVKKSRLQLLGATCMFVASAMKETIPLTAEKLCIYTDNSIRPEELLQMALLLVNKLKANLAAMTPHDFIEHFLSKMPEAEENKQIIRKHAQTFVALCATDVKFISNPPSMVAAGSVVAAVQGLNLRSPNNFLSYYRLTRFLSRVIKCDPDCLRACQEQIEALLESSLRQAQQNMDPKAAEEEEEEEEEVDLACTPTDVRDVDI
Variant	normalised enrichment score
P1A	0.395
S12A	0.3
G10A	0.457
L7A	0.146
E8A	-0.114
L9F	2.34
K4A	0.704

Block 4
Target: ABI1, truncated, D143A, DHFR fusion (Arabidopsis thaliana)
Technique: DHFR PCA, deep sequencing
Medium: yeast
Setting: methotrexate growth selection, single substitutions
Together with: (+)-ABA 0.0091 µM
Baseline: wild-type fitted maximum
Direction: higher = stronger binding
Starting sequence: PYL1, truncated, DHFR fusion (Arabidopsis thaliana); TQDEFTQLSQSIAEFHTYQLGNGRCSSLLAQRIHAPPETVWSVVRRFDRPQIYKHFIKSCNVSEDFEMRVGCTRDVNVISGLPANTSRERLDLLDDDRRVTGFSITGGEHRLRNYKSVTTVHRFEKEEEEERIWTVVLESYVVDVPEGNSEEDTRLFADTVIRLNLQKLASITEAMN; partner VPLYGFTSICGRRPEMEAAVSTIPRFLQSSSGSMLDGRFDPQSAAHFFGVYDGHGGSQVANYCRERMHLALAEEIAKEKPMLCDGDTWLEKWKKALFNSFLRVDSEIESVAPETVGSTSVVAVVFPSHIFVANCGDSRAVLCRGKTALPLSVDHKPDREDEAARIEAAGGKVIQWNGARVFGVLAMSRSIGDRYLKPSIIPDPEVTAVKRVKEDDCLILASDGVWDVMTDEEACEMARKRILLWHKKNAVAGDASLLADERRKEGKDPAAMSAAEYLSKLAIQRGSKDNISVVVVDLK
Variant	relative binding score [%]
R45P	-0.37
D96C	-5.34
L112D	-3.16
T101C	24.7
K168E	-3.88
G23W	-1.59
S80D	16.5
R24C	21.2
I162Y	-8
S87L	34.1
E129P	54.8
V142K	-0.414
D159E	4.07
V161A	3.88

Block 5
Target: RNA binding protein fox-1 homolog 2, RRM domain, GST-SBP tag (RBFOX2, Homo sapiens, UniProt O43251-10, residues 100-194)
Technique: RNA Bind-n-Seq
Form: RNA
Medium: in vitro
Concentration: 365 nM
Setting: natural RNA segment, single round, ends assumed
Baseline: no-protein control
Direction: higher = stronger binding
Constant ends, left off below: GGGAGUUCUACAGUCCGACGAUC … UGGAAUUCUCGGGUGCCAA
Residues (chain): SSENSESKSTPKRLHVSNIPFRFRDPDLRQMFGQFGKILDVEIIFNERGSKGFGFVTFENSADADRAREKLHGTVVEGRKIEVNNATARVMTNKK
Strand	RBNS enrichment (R)
GAGUCUGUGGGCCAAGUGUCUGCCUAGAAGAGCUGUGUAUGUCUGGCUAGAAGCAGCCAGGCCAUGGAAACAAGUUGAAUACAGCGAUUGGUAGGCCUCAUGUCAGAAUC	0.318
GUUUCUUUUCACAUCCCAGCCUCCCAUGGGCACUUCUAAGAAGAGAGGGGAUUUCUUGGAAAAGGAGAGAGGAAUCCCCUAGAGCAGGGAAAGCAGUGCCUGCCAGCUGU	0.921
CCUGCGGCCGGGCUGCCCUUCGCUGCCAGGACACCUGCCCCAGCGCGGCUUGGCCGCCAUCCGGGACGCUUCCAGACCACCUGCCAGCCAUCACAAGGGGAACGCAGAGG	0.216
UGUCCUUCUGAUAAAUAAAGCCCUUGCUGAAGGAAAAGCAACCUAGAUCACCUUAUGGAUGUCGCAAUAAUACAAACCAGUGUACCUCUGACCUUCUCAUCAAGAGAGCU	0.367
GCAGACACCUGUGCACCCCAUGAGUAGUGCCCACUUGAGGCUGGCACUCCCCUGACCUCACCUUUGCAAAGUUACAGAUGCACCCCAACAUUGAGAUGUGUUUUUAAUGU	0.572
GUCUGUCUAAUACAUGCCAGAGAUUUUUUUUUCAAAAAGUGCUUUAUCCCUACAAUGUACUGACAGUUCUUACAGUUGAGAUUUGUUCUUUUCAGCUAUUGCUUGUGAAA	0.711
AGCUAACUGGAUUUGGGUAUAUGCCCUUUAAGUUAAAAAUAAUAUGUAUUUCUAAUUUGCAUAUUUAAUUUUGUCAACACUAAGAAAUGUUCAUGUGUUGAAUUUGUAAA	0.94
AGCCAGAUUUCAUUUCUAUUCUUGUUUUAUGUGCCAAACCCCAAAGUGCAUUGGGCCUGAAUCUCUGAACACUGUAGACCCAUUAGAAGGAAGAUUGUUCUGACCGUCAC	0.625
CACUAAGGACAUUUAGAAUCCCCAUCCAUCCAUCCAUCCAUCCAUCCAUCCAUCCAUUCAUCCAUCCCCAGUGUUCCAUGUGUCACCUUCUCCUUUUCCAGCAUCCCUAU	2.6
GAGGCCUUUGAGUUCCCACUCAAUACCUCUCCCUCUUUACAGAAGAGAGGGGUGGGGGGAGCCUUGGUUGGUCUGAGCAGUGGCUGUGAAAUCCUCCCAAUGGGCACAGA	0.386
GGAAAGUGCCUGGGCUGUGCUUGUGACCGGCAGUACAGUGCCAUCCUGGAGGUGACUGGAGUAGCUGCUUUGCCAUUUCAUCACUGGGAUUCUGAACAGGCGCCAAGCUA	1.01
CCCGGAGGAAGCAAACUCUUCGUAUAAAAAAAGCAGGCCAUCUGCUUAACCCUUGGCUCCACCAUAAGGCACUGGGACUCGGAUUUCUCUAUCUGAUAGAGGUAUUUUCU	0.339

Block 6
Target: Histone acetyltransferase KAT6A, winged helix 2, GST fusion (KAT6A, Homo sapiens, UniProt Q92794, residues 85-181)
Technique: protein binding microarray
Form: double-stranded DNA, one strand shown
Medium: in vitro
Concentration: not given
Setting: 8-mer, flanks averaged, mean of 2 arrays, mostly near background
Baseline: not given
Direction: higher = stronger binding
Construct (chain): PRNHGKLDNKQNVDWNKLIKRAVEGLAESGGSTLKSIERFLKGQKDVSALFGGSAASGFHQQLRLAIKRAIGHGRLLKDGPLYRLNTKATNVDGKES
Strand	E-score
AGCGTAGC	0.157
CCCTATTC	-0.223
ATCCCAGG	0.0111
CGTGCTCC	0.086
ACGTCTCA	-0.128
AATATTGT	0.0428
CGGTGGAC	0.0918
CGGAGTTC	0.112
AGAAAGCA	0.121
GGAAGGAA	0.0879
CACTTAAA	-0.0453
ATGTCTAA	0.0309
AACCGACA	0.1
CTCACTGA	0.0532
CTGATTTA	-0.092
AATGGGAT	-0.185

Mixed results
Molecule	target	assay	test system	setting	how to read	measurement	result
PhoQ, residues 284 288 289 292 302 303 SSTLSG	PhoP, residues 12 14 15 18 19 NMSSL (Escherichia coli, UniProt P23836)	Sort-seq, refers to: YFP reporter	E. coli	PhoQ-PhoP variant library, together with: 10 µM Mg2+	baseline: high Mg2+ state, higher = stronger signaling	fold induction	3.98

For quick reference, copied from above (block 6):
Strand	E-score
CTCACTGA	0.0532
CGGTGGAC	0.0918
CTGATTTA	-0.092
CCCTATTC	-0.223
CGGAGTTC	0.112
CGTGCTCC	0.086
CACTTAAA	-0.0453
AACCGACA	0.1
AATATTGT	0.0428
AATGGGAT	-0.185
ATGTCTAA	0.0309
AGCGTAGC	0.157
ATCCCAGG	0.0111
ACGTCTCA	-0.128
GGAAGGAA	0.0879
AGAAAGCA	0.121
